Published values of several laboratories.
Compare with care: the assays were run in different laboratories. Several values in a cell are separate wells, animals, samples, runs or records. ± gives the spread as reported.

N#Cc1ccc2c(c1)[C@H]1CCCN(C(=O)c3ccc4[nH]cnc4c3)[C@H]1C2  DHEA-S level (human, female; 160 mg, day 15): 4.8 µmol/L
CC(C)(C(=O)N1CCOc2c(C#N)cncc2C1)C(F)F  subjects with adverse event (item: Investigations; human; oral, 10 mg once daily, 14 days, multiple ascending dose): 0%
Cc1ccc(Sc2ccccc2N2CCNCC2)c(C)c1  participants with TEAE (item: postural dizziness; healthy adult men; oral, 10 mg daily, 12 days): 0%
O=C(Nc1cnccc1Cl)N1CCN(Cc2ccc3c(c2)OC(F)(F)O3)CC1  t1/2 (healthy young men, plasma; oral, 10 mg once daily, day 10): 8.14 h
CCc1cc(C(=O)NC)c2nccc(N3CCc4c(cc(Cn5ccnc5)cc4-c4cn(C)nc4C(F)(F)F)C3=O)c2c1  lung weight (Sprague Dawley rat; oral, 100 mg/kg twice daily, 7 days): 1.15 ± 0.087 g
C[C@H]1O[C@@H](O[C@H]2[C@@H](O)C[C@H](O[C@H]3[C@@H](O)C[C@H](O[C@H]4CC[C@@]5(C)[C@H](CC[C@@H]6[C@@H]5C[C@@H](O)[C@]5(C)[C@@H](C7=CC(=O)OC7)CC[C@]65O)C4)O[C@@H]3C)O[C@@H]2C)C[C@H](O)[C@@H]1O  subjects with adverse event (item: dizziness; healthy men; oral, dose not given, 8 days, treatment-emergent, crossover trial): 4.5%
O=C(N[C@H](Cc1c[nH]c2ccccc12)C(=O)Nc1ccncc1)c1ccc(N2CCN(c3ccc(F)c(F)c3)CC2)cc1F  concentration (Swiss Webster mouse, female, liver; oral, 50 mg/kg, 8 h, 20% HPβCD vehicle): 6.93 µM
O=C(COc1ccc(Cl)cc1)NC12CC(c3nnc([C@H]4C[C@@H](OC(F)(F)F)C4)o3)(C1)C2  drug-related TEAE participants (human both sexes; oral, 145 mg once daily, 14 days): 100%
O=C1NCCc2nc(OCc3cccc(F)c3)ccc21  Irwin test score (item: Piloerection; Sprague-Dawley rat male; oral, 100 mg/kg, 0 min; relative to: baseline, direction not given): 0
CCCCOc1nc(N)c2c(n1)N(Cc1cccc(CN3CCCC3)c1)CC(=O)N2  drug-related TEAE incidence (item: Photopsia; human; oral, 2 mg): 0%
CC[C@H]1OC(=O)[C@H](C)[C@@H](O[C@H]2C[C@@](C)(OC)[C@@H](O)[C@H](C)O2)[C@H](C)[C@@H](O[C@@H]2O[C@H](C)C[C@H](N(C)C)[C@H]2O)[C@](C)(O)C[C@@H](C)C(=O)[C@H](C)[C@@H](O)[C@]1(C)O  amount permeated (starch gel membrane permeability; Gram-negative envelope surrogate; 200 µM, 10 min, pH 7.4): 0.07 nmol
O=c1ccc2ccc(O)c(O)c2o1  plasma concentration (human plasma; mean, both sexes): 0.091 µM
CN(C(=O)n1cnc(-c2cccnc2)c1)[C@H]1CC[C@H](O)CC1  concentration (Wistar rat, pons; oral, 10 mg/kg of BIA 10-2474, 24 h, single dose): 14.7 ± 0.6 ng/g
O=S(=O)(O)Oc1ccc(CCO)cc1O  plasma concentration (human plasma; median): 0.0161 µM
C[C@H](Cn1cnc2c(N)ncnc21)OCP(=O)(O)O  minimum DcNP-associated fraction (Macaca nemestrina, plasma; intravenous, time-averaged): 97%
Cc1c2oc3c(C)ccc(C(=O)N[C@@H]4C(=O)N[C@H](C(C)C)C(=O)N5CCC[C@H]5C(=O)N(C)CC(=O)N(C)[C@@H](C(C)C)C(=O)O[C@@H]4C)c3nc-2c(C(=O)N[C@@H]2C(=O)N[C@H](C(C)C)C(=O)N3CCC[C@H]3C(=O)N(C)CC(=O)N(C)[C@@H](C(C)C)C(=O)O[C@@H]2C)c(N)c1=O  median plasma concentration (LC-MS; children with cancer, plasma; dose not given, 24 h): 1.8 µg/L
COc1ccc2[nH]c([S+]([O-])Cc3ncc(C)c(OC)c3C)nc2c1 (stereo not drawn)  Cmax (LC-MS/MS; healthy Chinese, CYP2C19*3 GA, plasma; oral, 20 mg): 588 ± 498 ng/mL
Cc1ccc(C)c(OCCCC(C)(C)C(=O)O)c1  trough plasma concentration (human, plasma; oral, dose not given, day 11 predose, geometric mean): 1520 ng/mL
CCCCCCCCOc1ccc(C(=O)c2ccccc2)c(O)c1  amount in receptor fluid (EpiSkin reconstructed epidermis; concentration not given, 36 h): not detected
Cc1c(-c2ccc(N3CCc4cccc(C(=O)Nc5nc6ccccc6s5)c4C3)nc2C(=O)O)cnn1CC12CC3(C)CC(C)(C1)CC(OCCNCC[C@H](O)CO)(C3)C2  mean arterial pressure change (beagle dog, anaesthetised; intravenous infusion, 0.1 mg/kg/min, 15 min; relative to: baseline): 1 mmHg
CN[C@H](CC(C)C)C(=O)N[C@H]1C(=O)N[C@@H](CC(N)=O)C(=O)N[C@H]2C(=O)N[C@H]3C(=O)N[C@H](C(=O)N[C@H](C(=O)O)c4cc(O)cc(O)c4-c4cc3ccc4O)[C@H](O)c3ccc(c(Cl)c3)Oc3cc2cc(c3O[C@@H]2O[C@H](CO)[C@@H](O)[C@H](O)[C@H]2O[C@H]2C[C@](C)(N)[C@H](O)[C@H](C)O2)Oc2ccc(cc2Cl)[C@H]1O  amount permeated (starch gel membrane permeability; Gram-negative envelope surrogate; 200 µM, 45 min, pH 7.4): 0.76 nmol
COc1cccc2c1c(O)c(C(=O)N(C)c1ccc(C(F)(F)F)cc1)c(=O)n2C  serum ALT (mouse, CP model, serum; 0.154 µmol/kg, 4 weeks): no effect
NC[C@@]1(CC(=O)O)[C@@H]2CC[C@H]3C[C@@H]2[C@@H]1C3  unbound Cmax increase (human, moderate renal impairment, plasma; dose not given; relative to: normal renal function): 13.2%
C[C@@H](O)[C@H]1C(=O)N2C(C(=O)O)=C(SCCN=CN)C[C@H]12  amount permeated (starch gel membrane permeability; Gram-negative envelope surrogate; 200 µM, 30 min, pH 7.4): 2.22 nmol
Nc1ncnc2c1ncn2[C@H]1C[C@@H]2OP(=O)(O)OC[C@H]3O[C@@H](n4cnc5c(N)ncnc54)C[C@@H]3OP(=O)(O)OC[C@H]2O1  haemoglobin (non-tumor-bearing mice, blood; intravenous, 1 mg/kg, toxicity study): 149 ± 7.5 g/L
CC1=C(Cc2cn(CCO)nn2)C(=O)c2ccccc2C1=O  half-wave potential E1/2 (second) (square wave voltammetry; DMSO; vs Ag/AgCl (3 M KCl), added: 0.1 M n-Bu4NPF6): -1.28 V
CCn1cc(C(=O)O)c(=O)c2cnc(N3CCNCC3)nc21  amount permeated (starch gel membrane permeability; Gram-negative envelope surrogate; 200 µM, 30 min, pH 7.4): 2.06 nmol
Cc1cc(NC2CCN(C(=O)OC3CCN(C(=O)/C=C/CN(C)C)C3)CC2)n2ncc(C(C)C)c2n1 (stereo not drawn)  patients with TEAE (CTCAE v4.0, item: Dyspepsia; patients with advanced solid tumours; oral, dose not given, all schedules, grade 3 or higher): 0%
CCn1ncc2c1-c1cnc(N)c(c1)O[C@H](C)c1cc(F)ccc1-c1nn(C)nc1C2  Cmin, unbound (Balb/c nude mouse, female, PDX, plasma; po, 0.04 mg/kg BID, 12 h, 5 days dosing): 0.0002 ± 3e-05 µM
O=c1c(O)c(-c2ccc(O)cc2O)oc2cc(O)cc(O)c12  plasma concentration (human plasma; median, both sexes): 0.0713 µM
Cn1cc(Nc2nccc(-c3ccc4c(c3)CN(C3COC3)CC[C@H]4NC(=O)c3cn(C(C)(C)C)nn3)n2)cn1  percent change from baseline (item: transitional B cells; human, clinical trial, whole blood; 50 mg twice daily, follow-up): -17.1%
CCOC(=O)[C@@]12C[C@@H]1[C@@H](n1ccc3c(NC)nc(C#Cc4ccc(Cl)s4)nc31)[C@H](O)[C@@H]2O  AUC extrapolated share (Sprague-Dawley rat, male, plasma; oral, 3.00 mg/kg): 1.7%
C=CC(=O)NC1CCN(c2ncc3ncnc(Nc4ccc(Oc5ccc6c(c5)ncn6C)c(C)c4)c3n2)CC1  adverse events incidence (item: eye disorders (SOC); human male; oral, dose not given, CTCAE on-treatment AEs): 0%
COc1cc(C(=O)O)cc(OC)c1O  plasma concentration (human plasma; mean, both sexes): 5.21 µM
Cc1cccc(CNC(=O)c2cn(CCNC(=O)c3ccccc3S)c3cc4c(cc3c2=O)OC(F)(F)O4)n1  Tmax (Sprague-Dawley rat, male, whole blood; intravenous, 5 mg/kg of parent compound): 4.98 min
COc1ccc2c3c([nH]c2c1)[C@H](CC(C)C)N1C(=O)[C@H](CC(=O)NC(C)C)NC(=O)[C@@H]1C3  serum concentration (wild-type mouse, male, serum; oral, 100 mg/kg, 2 h): 34.9 µM and 41.9 µM and 29 µM
O=Cc1ccc(O)cc1  plasma concentration (human plasma; mean, both sexes): 2.04 µM
NC1(C(=O)N[C@@H](CCO)c2ccc(Cl)cc2)CCN(c2nc[nH]c3nccc2-3)CC1  incidence of Amnesia (metastatic CRPC patients; dose not given, any grade, treatment-related, all doses, added: enzalutamide 160 mg daily): 6.7%
CCn1cc(C(=O)N2CCOCC2)c(=O)c2cc(NC3Cc4ccccc4C3)cnc21  half-life (human, fasted; oral suspension, 15 mg single dose, arithmetic mean): 3.23 h
O=C(Nc1nc2cccc(-c3ccc(CN4CCS(=O)(=O)CC4)cc3)n2n1)C1CC1  treatment-emergent adverse events (item: regurgitation; rheumatoid arthritis patients; oral, 200 mg once daily, 4 weeks, any relatedness): 0%
CN(C)c1cc(NC(=O)CNC(C)(C)C)c(O)c2c1C[C@H]1C[C@H]3[C@H](N(C)C)C(O)=C(C(N)=O)C(=O)[C@@]3(O)C(O)=C1C2=O  amount permeated (starch gel membrane permeability; Gram-negative envelope surrogate; 200 µM, 10 min, pH 7.4): 0.47 nmol
Cc1ccc(C(=O)N(CCCN)C(c2nc3snc(C)c3c(=O)n2Cc2ccccc2)C(C)C)cc1 (stereo not drawn)  patients with adverse events (item: Hyperbilirubinemia; human patients; intravenous, dose not given, CTCAE grade ≥3, all doses): 5%
C=Cc1c(C)c2cc3nc(c4c5[nH]c(cc6nc(cc1[nH]2)C(C)=C6CC)c(C)c5C(=O)C4)[C@@H](CCC(=O)O)[C@@H]3C  absorbance maximum (absorbance spectroscopy; methanol; 10 µM, red-shifted range): 666 nm
CCN1CCN(c2cc(N3CCN(CC)CC3)nc(NCCNc3ccnc4cc(Cl)ccc34)n2)CC1  apoptotic cells (COS-7; 10 µM, 24 h, 0.1% DMSO, unit not given; relative to: vehicle control): 1.43 ± 0.82
CC(C)(Sc1ccncc1-c1ccc(C#N)c2ccccc12)C(=O)O  AUC(0-24) (human, plasma; oral, 10 mg once daily, added: febuxostat 40 mg): 216 ng·h/mL

Repeated from above:
COc1cc(C(=O)O)cc(OC)c1O  plasma concentration (human plasma; mean, both sexes): 5.21 µM
NC[C@@]1(CC(=O)O)[C@@H]2CC[C@H]3C[C@@H]2[C@@H]1C3  unbound Cmax increase (human, moderate renal impairment, plasma; dose not given; relative to: normal renal function): 13.2%
CCn1cc(C(=O)N2CCOCC2)c(=O)c2cc(NC3Cc4ccccc4C3)cnc21  half-life (human, fasted; oral suspension, 15 mg single dose, arithmetic mean): 3.23 h
CC(C)(C(=O)N1CCOc2c(C#N)cncc2C1)C(F)F  subjects with adverse event (item: Investigations; human; oral, 10 mg once daily, 14 days, multiple ascending dose): 0%
CCc1cc(C(=O)NC)c2nccc(N3CCc4c(cc(Cn5ccnc5)cc4-c4cn(C)nc4C(F)(F)F)C3=O)c2c1  lung weight (Sprague Dawley rat; oral, 100 mg/kg twice daily, 7 days): 1.15 ± 0.087 g
